Measured values from different studies.
Each numbered part is a random draw from the data of one study; scales do not carry over between parts. Substitutions count along the parent as printed.

Sample 1
Target: Histone acetyltransferase KAT6A, winged helix 1, GST fusion (KAT6A, Homo sapiens, UniProt Q92794, residues 1-85)
Method: protein binding microarray
Molecule type: double-stranded DNA, one strand shown
Sample: in vitro
Tested at: not given
Setting: 8-mer, flanks averaged, mean of 2 arrays, mostly near background
Reference: not given
Direction: higher = stronger binding
Construct (chain): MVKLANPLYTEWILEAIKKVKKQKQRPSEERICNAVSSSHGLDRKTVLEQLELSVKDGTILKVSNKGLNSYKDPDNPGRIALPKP
| Sequence | E-score |
| --- | --- |
| CCAGCAGA | -0.179 |
| ATCCTCGA | -0.203 |
| CGAGGGAC | 0.0477 |
| CAAGATCC | -0.0556 |
| GCTAATCC | 0.0546 |
| CAGCAATG | -0.212 |
| CATTTACC | -0.0804 |
| CATCTTTA | -0.0595 |
| CATAGATG | -0.00102 |
| CCAGTCTA | -0.0805 |
| CCACGGAC | 0.177 |
| CCCTCACA | -0.139 |
| GCGGAGGA | 0.194 |
| CTCACATA | 0.0219 |
| GATGAGAA | -0.196 |
| ATACACCC | -0.00395 |
| CATTTCGC | 0.127 |
| ACTCCGTC | 0.177 |
| ATCATCTC | -0.196 |
| GCATCCAA | -0.161 |
| CTCTTCCA | -0.195 |
| GACATTGA | 0.0715 |
| ACGTCGCA | 0.171 |
| GACGGCTC | 0.357 |
| CACGGAAC | 0.293 |

Sample 2
Target: CCND2, cyclin fold, Cln2 fusion (human)
Method: yeast growth competition, sequencing
Sample: yeast
Setting: weak parent motif
Reference: not given
Direction: higher = stronger binding
Parent: BRCA2 docking peptide (human); CKKRRALDFLSRL
| Change | normalised enrichment score |
| --- | --- |
| C1A | -0.215 |
| D8A | 0.184 |
| F9L | -0.478 |
| K2A | 0.267 |
| R12A | 0.818 |
| R5A | 0.102 |
| R4A | 0.157 |

Sample 3
Target: RNA binding protein fox-1 homolog 2, RRM domain, GST-SBP tag (RBFOX2, Homo sapiens, UniProt O43251-10, residues 100-194)
Method: RNA Bind-n-Seq
Molecule type: RNA
Sample: in vitro
Tested at: 365 nM
Setting: natural RNA segment, single round, ends assumed
Reference: no-protein control
Direction: higher = stronger binding
Shared flanks, not repeated: GGGAGUUCUACAGUCCGACGAUC … UGGAAUUCUCGGGUGCCAA
Residues (chain): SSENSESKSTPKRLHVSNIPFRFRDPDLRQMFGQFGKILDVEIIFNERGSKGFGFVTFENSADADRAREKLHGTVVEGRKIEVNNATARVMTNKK
| Sequence | RBNS enrichment (R) |
| --- | --- |
| AACUGGAACCAUUGGCAGCUGCACGCUCAUUACUACCCUCCGCUCCUGCGCUCUGCCACUGUCCGGAAAUUCAUGGUUGGCUACGAAAUGCUUGCUCAGGCUCAGAGGGA | 1.96 |
| AAGAGAGAGAGACCUUUAUCCCGUAACUGAGACCUUGGUUGAGGACUGGCAAUUUUAUAGAGGGUUGGUUUAGUUCUUUGCUUUUUCAACAGGAAAUAACACUUCAGGAG | 0.534 |
| AUCUUCCAUAAUUUUAUGGUAUUACACAGGGAAAGCUAUGACUGCAGGAUCAGUCUAACUAUACUAUUAGGUGCAUGUAUUCUCUUUUCACUAACUUAUACUUGUCUAUC | 2.04 |
| CGUGGAUAGCCCCUUGGCUGCUCUCCUGCAGAGAGACAUCGGACAGACCUUAAUUCUUACUCACUGCUGUGGCUGGAGAGUAUAAGGAAUGCUUUUUCUUUUUUUCUUUC | 0.279 |
| UGGCAGCCCAGAAUCCUCAAGACAAAGCAAGGGGUAUCAGCUGAUGGCCGCGGGACUGAUGGGUGUCCUGGGUUCUUUAGCUCACCAGCACUUUGCGCUCAAUGGACUUU | 0.519 |
| GUUCUGUAAUUUAUUGAACAUUGGCCCUUGGGUAUAGCUUGACCCUUCCCAGAAUCUGUUUUGCCAUCUGCCAUUUGAGGGUGCUUGUUCUAAACAGCCUUUGAGGGUUU | 0.479 |
| CCAUGGAAAGGGCGGAACGAUUCUCCAGGACAGCCAGCUCUUUCGUUGAAGAUCUAUCUAUGCAUUUUUUUACACUUACACAUAAACUGGUAUUUUCGAACAAUAGGAAA | 0.596 |
| GGAUCAGGGAACUAAGCAUUAUGUGAAUUCACCAGCAAGAUGUACAGAACGCCUGUGUUUACAUUGUUUUUAUGGAACUAGCAGAAUAAAACAUCUAUUUUAAAAAUGAA | 0.74 |

Sample 4
Target: Interferon regulatory factor 7, full length, phosphomimetic (IRF7, Homo sapiens, UniProt Q92985, residues 1-503, S101K/S471D/S472D/S475D/S476D/S477D/S483D/S484D/S487D)
Method: protein-binding microarray
Molecule type: double-stranded DNA, one strand shown
Sample: in vitro
Tested at: 250 nM
Setting: 60-bp whole probe
Added: salmon DNA 0.4 mg/ml
Reference: random background probes
Direction: higher = stronger binding
Shared flanks, not repeated: GCCTAGCAC … GTCTTGATTCGCTTGACGCTGCTG
Residues (chain): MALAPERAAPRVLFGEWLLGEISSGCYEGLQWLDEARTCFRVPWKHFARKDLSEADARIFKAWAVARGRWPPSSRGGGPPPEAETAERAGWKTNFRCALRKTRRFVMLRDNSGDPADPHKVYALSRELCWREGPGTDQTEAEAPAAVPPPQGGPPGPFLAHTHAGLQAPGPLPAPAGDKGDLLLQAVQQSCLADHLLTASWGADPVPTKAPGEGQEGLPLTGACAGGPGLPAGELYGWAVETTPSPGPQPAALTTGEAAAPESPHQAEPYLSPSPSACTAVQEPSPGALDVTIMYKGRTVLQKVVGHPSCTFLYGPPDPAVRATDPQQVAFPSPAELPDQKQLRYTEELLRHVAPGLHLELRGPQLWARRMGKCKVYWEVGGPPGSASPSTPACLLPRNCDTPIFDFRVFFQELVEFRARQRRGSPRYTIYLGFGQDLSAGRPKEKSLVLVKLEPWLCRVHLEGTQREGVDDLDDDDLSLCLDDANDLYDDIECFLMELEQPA
| Sequence | log fluorescence [z-score] |
| --- | --- |
| GACGATCTCAGTCTAGAGACGTGCTAG | -0.308 |
| GACGGTTTCGGTTCCCGGACGTGCTAG | 13.6 |
| TCACATTCCCCATTGTGACTGTGCTAG | 1.97 |
| GACGGTTTGCTACTGCTGACGTGCTAG | -0.111 |
| CCAGACCCTGATCCATGCATGTGCTAG | -0.219 |
| GACGGTTCCCGTTTCCTGACGTGCTAG | 4.03 |
| TTAGATTCCAGTTTCAATTAGTGCTAG | 3.77 |
| TCAGGTTTCCTTTTCCTTTAGTGCTAG | 6.94 |
| TCACTTTTCATTTTCTTACTGTGCTAG | 1.95 |
| CTCTGCTTGGGTCTGGGTATGTGCTAG | -0.452 |
| TAAGGACTGGGGTATCGGTTAGTGCTA | 0.19 |
| TCACTTTCAGTTCTCCCACTGTGCTAG | 3.28 |
| TTAGATCTCAGTCTCGATTAGTGCTAG | 1.7 |
| GACGATAGCGGGACTGGAGACGTGCTA | -0.929 |
| TCATCTTTTTTGTTCCAACTGTGCTAG | 1.03 |
| CCTTGCATGTTTTTGACAAAGTGCTAG | -0.152 |
| TACGATATCGGGTTTCGAGACGTGCTA | 3 |
| CACGGTCTCCTTTTCCTGACGTGCTAG | 1.36 |
| TCACCAATGGTCTTTCCAACTGTGCTA | -0.597 |
